Measured values of several laboratories.
Every numbered part comes from another study and shows a few of its results, in no order. Changes are numbered by the printed parent chain.

Block 1
Target: Sal-like protein 4, full length isoform A (SALL4, Homo sapiens, UniProt Q9UJQ4, residues 1-1053)
UniProt Q9UJQ4, sequence (whole entry, looked up): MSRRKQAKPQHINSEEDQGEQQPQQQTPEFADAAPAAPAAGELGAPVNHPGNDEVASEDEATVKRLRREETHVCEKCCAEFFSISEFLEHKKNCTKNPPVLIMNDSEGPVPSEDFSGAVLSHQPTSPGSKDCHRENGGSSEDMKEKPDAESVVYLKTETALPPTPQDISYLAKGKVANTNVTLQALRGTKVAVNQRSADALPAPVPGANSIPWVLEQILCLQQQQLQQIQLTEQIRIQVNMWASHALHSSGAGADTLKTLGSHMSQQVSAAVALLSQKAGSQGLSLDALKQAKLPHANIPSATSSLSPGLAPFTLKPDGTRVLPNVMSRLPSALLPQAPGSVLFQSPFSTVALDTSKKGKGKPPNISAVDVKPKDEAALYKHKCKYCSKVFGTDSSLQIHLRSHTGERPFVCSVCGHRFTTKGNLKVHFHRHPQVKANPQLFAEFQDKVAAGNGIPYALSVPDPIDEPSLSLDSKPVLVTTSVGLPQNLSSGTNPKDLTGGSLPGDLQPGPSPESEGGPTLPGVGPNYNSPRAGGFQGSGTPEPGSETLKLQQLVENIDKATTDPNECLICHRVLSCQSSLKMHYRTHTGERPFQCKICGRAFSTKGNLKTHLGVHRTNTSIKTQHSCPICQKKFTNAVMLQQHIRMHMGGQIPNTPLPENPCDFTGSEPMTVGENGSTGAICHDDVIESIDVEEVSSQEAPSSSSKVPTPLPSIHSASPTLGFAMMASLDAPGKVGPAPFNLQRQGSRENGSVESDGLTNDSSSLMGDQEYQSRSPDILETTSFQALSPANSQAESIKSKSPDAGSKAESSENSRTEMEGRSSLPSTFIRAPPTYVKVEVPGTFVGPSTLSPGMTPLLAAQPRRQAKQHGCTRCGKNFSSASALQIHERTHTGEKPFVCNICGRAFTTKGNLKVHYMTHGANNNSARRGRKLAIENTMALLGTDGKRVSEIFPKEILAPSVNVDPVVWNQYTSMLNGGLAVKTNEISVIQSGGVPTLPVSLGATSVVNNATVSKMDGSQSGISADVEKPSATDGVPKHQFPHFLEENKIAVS
Method: universal PBM
Molecule type: double-stranded DNA, one strand shown
Sample: in vitro
Tested at: 600 nM
Notes: 8-mer, flanks averaged, mean of replicates
Direction: higher = stronger binding
The E-score of `AGACCCAA` is reported as -0.124.
The E-score of `AGACGGAA` is reported as -0.028.
The E-score of `CTCAGCAC` is reported as -0.159.
With `GTACGCAC` the E-score was -0.114.
With `GTTGAGTA` the E-score was 0.135.
The E-score of `CATACGGG` is reported as -0.171.
For `CGTGATGC`, the E-score was -0.0833.
The E-score of `ATTGCGCA` is reported as -0.0267.
For `AAAACCCC`, the E-score was -0.175.
For `GAAGCCTC`, the E-score was -0.219.
With `TGCAACCA` the E-score was -0.126.
The E-score of `CCCTTAAC` is reported as -0.0854.
With `ATCCCCTA` the E-score was 0.0358.
With `GAGCTTCC` the E-score was -0.218.
For `AGGCGAAA`, the E-score was 0.0168.
`ACCGACGC` gave an E-score of -0.182.
With `CAAGGGAG` the E-score was -0.166.
For `TTCTACAA`, the E-score was 0.171.
For `AGTCAAGC`, the E-score was -0.223.
`GAGAGTCA` has an E-score of 0.0874.
With `AAACTTGG` the E-score was 0.046.
`ATCCGCTA` has an E-score of -0.0518.
For `GAACAGCC`, the E-score was -0.292.
With `CGCAAATA` the E-score was 0.244.
`ACTGCCAA` has an E-score of -0.0695.

Block 2
Target: Histone acetyltransferase KAT6A, winged helix 1, GST fusion (KAT6A, Homo sapiens, UniProt Q92794, residues 1-85)
Method: protein binding microarray
Molecule type: double-stranded DNA, one strand shown
Sample: in vitro
Tested at: not given
Notes: 8-mer, flanks averaged, mean of 2 arrays, mostly near background
Reference: not given
Direction: higher = stronger binding
Target sequence (chain): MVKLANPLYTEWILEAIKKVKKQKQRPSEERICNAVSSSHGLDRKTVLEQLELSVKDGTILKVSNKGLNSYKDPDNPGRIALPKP
For `ACCGAGGC`, the E-score was -0.0301.
For `ATATTCCG`, the E-score was 0.0154.
With `ACCCCAGA` the E-score was -0.22.
For `GACACCTC`, the E-score was -0.0119.
`ACCGCTTC` has an E-score of 0.202.
For `ATGTGCGC`, the E-score was 0.24.
With `CTCCTTAA` the E-score was -0.0663.
`ATAGTGTC` has an E-score of -0.00092.
`CATGTGTA` gave an E-score of -0.0846.
With `AGAAAAAA` the E-score was -0.196.
The E-score of `CTTTCGTC` is reported as -0.0896.
For `CGATTAAG`, the E-score was -0.0118.
`CGCACAAA` has an E-score of 0.0515.
`GTTATATA` gave an E-score of -0.177.
`AGTTGATA` gave an E-score of -0.139.
For `CCTCATCA`, the E-score was -0.245.
The E-score of `GTTGCTGA` is reported as -0.091.
`ACAAGGGA` has an E-score of -0.298.
With `AGAGTCCT` the E-score was -0.11.
With `GACGTCGC` the E-score was 0.187.
`AGAAACCA` gave an E-score of -0.278.
`AGGCTCCG` has an E-score of 0.0613.
`CGCCATTC` has an E-score of -0.121.
`ATACAGCA` has an E-score of -0.175.
The E-score of `GGACTAAA` is reported as 0.0357.

Block 3
Target: CCNB3, cyclin fold, Cln2 fusion (human)
Method: yeast growth competition, sequencing
Sample: yeast
Notes: weak parent motif
Reference: not given
Direction: higher = stronger binding
Parent: CDC42EP1 docking peptide (human); SLVVGKLSFDSSP; partner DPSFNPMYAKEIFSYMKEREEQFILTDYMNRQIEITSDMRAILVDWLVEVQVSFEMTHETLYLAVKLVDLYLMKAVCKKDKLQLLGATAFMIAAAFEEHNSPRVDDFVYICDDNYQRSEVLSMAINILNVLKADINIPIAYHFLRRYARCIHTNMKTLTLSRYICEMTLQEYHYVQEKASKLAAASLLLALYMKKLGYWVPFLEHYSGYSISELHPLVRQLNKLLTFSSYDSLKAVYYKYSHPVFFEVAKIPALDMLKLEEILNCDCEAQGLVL
Under “normalised enrichment score”, `SLVVGKLSFDSSA [P13A]` is recorded as 0.323.
Under “normalised enrichment score”, `SLVVGKLSFASSP [D10A]` is recorded as 0.272.
Under “normalised enrichment score”, `SLVAGKLSFDSSP [V4A]` is recorded as -0.0811.
`SLVVGKLAFDSSP [S8A]`: “normalised enrichment score” -0.17.
Under “normalised enrichment score”, `SLVVGKASFDSSP [L7A]` is recorded as 0.0195.
Under “normalised enrichment score”, `SLVVGKLSFDSAP [S12A]` is recorded as 0.449.

Block 4
Target: Interferon regulatory factor 5, full length, phosphomimetic (IRF5, Homo sapiens, UniProt Q13568-2, residues 1-514, S451D/S453D/S456D/S462D)
Method: protein-binding microarray
Molecule type: double-stranded DNA, one strand shown
Sample: in vitro
Tested at: 940 nM top
Notes: 60-bp whole probe
Together with: salmon DNA 0.4 mg/ml
Reference: random background probes
Direction: higher = stronger binding
Shared flanks, not repeated: GCCTAGCAC … GTCTTGATTCGCTTGACGCTGCTG
Under “fitted relative affinity”, `GACGAACTGGGTTATCGAGACGTGCTA` is recorded as 0.037 z-score.
Under “fitted relative affinity”, `TTAGGACTGCTTTTCCTTGAGTGCTAG` is recorded as -0.233 z-score.
`TTAGGTATCGGTTACGGTTAGTGCTAG`: “fitted relative affinity” 10.4 z-score.
`TTAGAACTAAGTCTCGATTAGTGCTAG`: “fitted relative affinity” 1.93 z-score.
Under “fitted relative affinity”, `GATGGTTTCGACACTGGGGACGTGCTA` is recorded as 8.04 z-score.
Under “fitted relative affinity”, `TTAGAATTCGGGACTGGATTAGTGCTA` is recorded as -0.451 z-score.
For `TTGAGTCTTCTCCTCTAGGTGTGCTAG`, “fitted relative affinity” read -0.0805 z-score.
`GACGGTCTCAGACTGGGGACGTGCTAG`: “fitted relative affinity” -0.104 z-score.
For `TCAACTCTTCTTTTTTTACTGTGCTAG`, “fitted relative affinity” read 1.11 z-score.
`GTGCCTTTATATACCTGAATGTGCTAG`: “fitted relative affinity” 0.427 z-score.
`TCAAGTTTTCATTTTCTACTGTGCTAG` — result for “fitted relative affinity”: 1.41 z-score.
`GACGATATCGGGTATCGACACGTGCTA` — result for “fitted relative affinity”: 1.37 z-score.
Under “fitted relative affinity”, `TTAGGTCTCGGTATCGTTTAGTGCTAG` is recorded as 6.01 z-score.
For `TATGTTCCCTATATAAGGCGGTGCTAG`, “fitted relative affinity” read 0.115 z-score.
`CACGGTTTCCTTATCCTGACGTGCTAG`: “fitted relative affinity” 1.2 z-score.
Under “fitted relative affinity”, `CTCTGCTTGTATCTGGGTTCGTGCTAG` is recorded as 0.259 z-score.

Block 5
Target: RING finger protein unkempt homolog, zinc fingers 1-6, SBP tag (UNK, Homo sapiens, UniProt Q9C0B0, residues 30-357)
UniProt Q9C0B0, sequence (30-357, looked up): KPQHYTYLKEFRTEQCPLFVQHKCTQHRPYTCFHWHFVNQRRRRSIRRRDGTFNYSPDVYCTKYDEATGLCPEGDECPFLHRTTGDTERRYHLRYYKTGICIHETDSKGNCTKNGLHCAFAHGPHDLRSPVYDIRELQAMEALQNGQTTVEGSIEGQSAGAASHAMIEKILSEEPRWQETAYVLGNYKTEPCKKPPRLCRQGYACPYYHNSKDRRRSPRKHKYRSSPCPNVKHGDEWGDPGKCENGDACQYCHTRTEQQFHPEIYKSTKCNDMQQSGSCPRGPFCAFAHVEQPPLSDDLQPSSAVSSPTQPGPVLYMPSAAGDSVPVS
Method: RNA Bind-n-Seq
Molecule type: RNA
Sample: in vitro
Tested at: 100 nM
Notes: RNA with constant flanks, vertebrate orthologous sites, ends assumed
Reference: input RNA pool
Direction: higher = stronger binding
Shared flanks, not repeated: GGGAGUUCUACAGUCCGACGAUC … CAACAGAGGAUUGAGCAUCA
The bound/input enrichment of `CAUUGUACCCUGCUGUAUAAUAAAAAAUCUUAGACAUUUAUCAACUGUUGAUACAAAUGUUAGUCCCUAACCACUUUUUAUAUAUGUUUUAAAUUUUUGAAAUUCAAGUGUACCUGCCAU` is reported as 0.548 ratio.
For `AACUGUUGUGUGAAAUGUCUAUCCAGAGAAGUGUCACCUUAUAAAUAUUAUCAAAUAAUUUAGCUAGAUUCUUCUUAAGUAUUAAAGUAUUUGUCAAGCAUUUAAAGUGAAUUUGAAAUG`, the bound/input enrichment was 0.355 ratio.
`AGAAAAUUUUAACCAGGAAUCUGAAGGUAGAAAUACAGGACCAUGGUUAUCUUCCUCACUUAGAAAUAGAUGCACACCUUUGUUCUCUAGAAGGAGACGAGAGGGACGAGAUGAAUCUUC` has a bound/input enrichment of 0.766 ratio.
With `UGGGUUAUUCCUAUUAUUAUCAAGUAGCUGGAAUUGUGAAGGUCGGAGUAGUUAGAUCUUUAGCUUUUAUUCCUUUUUUUUGUAUUACUAUCCAUGUGUAUAAAUUAUUGAUCAUGUUGC` the bound/input enrichment was 2.08 ratio.
`UUUUAUUGAUCAGGUCUGUAAAUGUGUACUAAAAAAAUCAGAGUCUAUUUAUAAACAGAAUAGUUUAUUUAAAGAGGUCUUUCCUCACAAUGUUGUGAUAUGCGUAAUUCCAUUUGUUAC` has a bound/input enrichment of 0.314 ratio.
With `AGGAAAUGCUGGCUGCAAACCCUCAGGAUCGUCCAGAUGCUUUUGAACUAGAACUCAGAUUAGUACAAAUUGCAUUUAAAGAUAGCAGCUGGGAGACGUGACACAUAUAUUAUUUGCAAA` the bound/input enrichment was 1.16 ratio.
`AAUCAGUAGAAUUACAUAAUACUAAAGUUGCAGUUGAAAGGAUAUCCAAGUAUGUGUUGGUAGUUACUAAAGGAAUUAUAGCUGUUAUUGCCUUGUAUUUAUAGACCUUGUUUCAGGUUU` gave a bound/input enrichment of 0.741 ratio.
The bound/input enrichment of `UGGGUUACUCCUAUUAUUAUCAAGUAGCUGGAAUUGUGAAGGUCGGAGUAGUUAGAUCUUUAGCUUUUAUUCCUUAUUUUUUUUUGUAUUCCUAUCCAUGUGUAUAAAUUAUUGAUCAUG` is reported as 7.14 ratio.

Block 6
Target: ABI1, truncated, D143A, DHFR fusion (Arabidopsis thaliana)
Method: DHFR PCA, deep sequencing
Sample: yeast
Notes: methotrexate growth selection, single substitutions
Together with: (+)-ABA 2500 µM
Reference: wild-type fitted maximum
Direction: higher = stronger binding
Parent: PYL1, truncated, DHFR fusion (Arabidopsis thaliana); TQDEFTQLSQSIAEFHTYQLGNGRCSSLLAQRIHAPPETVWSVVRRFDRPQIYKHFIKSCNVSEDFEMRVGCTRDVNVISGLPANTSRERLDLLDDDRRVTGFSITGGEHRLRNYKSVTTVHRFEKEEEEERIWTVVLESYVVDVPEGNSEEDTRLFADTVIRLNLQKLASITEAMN; partner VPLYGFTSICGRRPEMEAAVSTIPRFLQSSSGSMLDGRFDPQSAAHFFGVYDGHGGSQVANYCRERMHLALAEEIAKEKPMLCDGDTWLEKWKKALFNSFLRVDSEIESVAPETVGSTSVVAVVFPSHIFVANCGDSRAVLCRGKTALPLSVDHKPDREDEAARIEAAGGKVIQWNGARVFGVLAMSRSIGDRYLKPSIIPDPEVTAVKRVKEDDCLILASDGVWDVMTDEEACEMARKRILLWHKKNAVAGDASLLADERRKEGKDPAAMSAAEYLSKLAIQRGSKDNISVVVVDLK
Under “relative binding score”, `R45E` is recorded as 50.9%.
`V142D` — result for “relative binding score”: 87.3%.
`D92K` — result for “relative binding score”: 52.5%.
For `T135S`, “relative binding score” read 106%.
`E14I` — result for “relative binding score”: 85.4%.
`N114M` — result for “relative binding score”: 80.7%.
For `I57N`, “relative binding score” read 53.6%.
For `L112T`, “relative binding score” read 51.7%.
`L82P`: “relative binding score” 90.1%.
Under “relative binding score”, `H110K` is recorded as 40.2%.
`E14L` — result for “relative binding score”: 91.8%.
`T39Q` — result for “relative binding score”: 96.9%.
`V118I` — result for “relative binding score”: 98.8%.
`D3S`: “relative binding score” 92.2%.
Under “relative binding score”, `H34R` is recorded as 88.3%.

Mixed results
With `PhoQ, residues 284 288 289 292 302 303 AGHLVA` the fold induction was 5.38 (PhoP, residues 12 14 15 18 19 VHSCL (Escherichia coli, UniProt P23836); Sort-seq, measured: YFP reporter; E. coli; PhoQ-PhoP variant library, together with: 10 µM Mg2+; reference: high Mg2+ state, higher = stronger signaling).

Some of these lines once more (block 6):
`D92K` — result for “relative binding score”: 52.5%.
Under “relative binding score”, `H110K` is recorded as 40.2%.
For `T135S`, “relative binding score” read 106%.
Under “relative binding score”, `R45E` is recorded as 50.9%.
`T39Q` — result for “relative binding score”: 96.9%.
`V142D` — result for “relative binding score”: 87.3%.
`E14L` — result for “relative binding score”: 91.8%.
For `L112T`, “relative binding score” read 51.7%.
`D3S`: “relative binding score” 92.2%.
